# Measured values of several laboratories.
# A part holds a random share of what one study measured. Changes are numbered by the printed parent chain.

# Series 1
# Target: CEBPD, bZIP domain (human)
# Technique: DHFR protein complementation
# Medium: yeast
# Notes: single substitutions, most at no-binding floor
# Baseline: wild-type JUN-FOS pair
# Reading: higher = stronger binding
# Starting sequence: JUN, bZIP domain (human); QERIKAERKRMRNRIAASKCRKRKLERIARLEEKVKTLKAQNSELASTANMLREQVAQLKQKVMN; partner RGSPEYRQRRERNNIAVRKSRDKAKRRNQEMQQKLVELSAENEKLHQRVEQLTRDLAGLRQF
Variant,binding fitness [natural log]
A29D,-1.34
L31H,-1.07
T37K,-1.34
M51A,-1.3
Q55Y,-1.43
R53T,-1.33
L31D,-1.45
A40D,-1.25
K36R,-1.28
L52Q,-1.43
S43E,-1.22
V35W,-1.35
A57L,-1.35
S43D,-1.19
V56H,-1.5
R53S,-1.22
K34G,-1.46

# Series 2
# Target: RNA binding protein fox-1 homolog 2, RRM domain, GST-SBP tag (RBFOX2, Homo sapiens, UniProt O43251-10, residues 100-194)
# Technique: RNA Bind-n-Seq
# Form: RNA
# Medium: in vitro
# Concentration: 365 nM
# Notes: natural RNA segment, single round, ends assumed
# Baseline: no-protein control
# Reading: higher = stronger binding
# All sequences stand within: GGGAGUUCUACAGUCCGACGAUC … UGGAAUUCUCGGGUGCCAA
# Target sequence (chain): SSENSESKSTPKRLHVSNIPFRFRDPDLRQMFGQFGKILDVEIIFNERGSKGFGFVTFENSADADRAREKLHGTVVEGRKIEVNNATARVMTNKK
Sequence,RBNS enrichment (R)
AAGCAUGUCCAACUUCUGUCCAGAUGACAUUAAAACCAAAGCCUAAUUGUUAAGCCUCUUAUUCUAAAGUCCAUAGCAAUGCUAUGGAAUAUCAAGUAUAAUGAUGUAGU,1.51
CAUCCUGCCUAAGCUGUGUCCCUGAGUGGUGGCUUUCCCUCCUGUCACGUGACAUCCCAUUCACUCAUCUACACUAGCCCAGUGCUCCCAUUGUCCCCUGCCUCCUCUGU,0.484
CACAUGUUGGGAAGUAGAUUCAGAAAGAUAGGAGAAAUACCCAGACUCUACCACUUCCGUGAGCUACUAGUUAGGCAUGGGCAGGAUUAAGUUUUAUGUGUAUUAUCUUC,0.17
UUGACAUGCGUGCCCCGAUGCCACCAUAGCCCCUAGGCCAACAAUGUCAUGGUCUAAACACCAAAAAGUGAUGCCCCGCAUUCCUUCCCUGGAUGGUACCGUUUCUUCUC,0.25
CAGUAGCAUGUAAUGCAACUGUUUGACAGUUUAACUCAAUUCAUGCUUCAAACUGUUUUAAUCAUCAAACCAAGUCACUGUUCAUUUUCAUCUUCUUGUACAGUUUUUGU,0.657
UUUAAGAAAUAACCUCUUACAGUUGUAACCAUUGCGGCUCUGUCCACUUCUCGUUGCUGCUCUGUGGCACAUAUCGGAAGCAGUACAGCGCGCGGCUCUACACGCUUGGG,0.219
UUCUCUUCCCUUGUCCUUCCUCCUUGGCUCUUCUGUCCUUUCCUUCCCUGUGCAGACAGGACUAUGGUCUUCUUGCCCAAAGACUUUCAUCUGGACUGUCUAUAGAGUAA,0.423
CAGAUCUUACUCCACGUAUACUUUUUGGUUUGUGAAGGCAUCGGUUAAGGGCACAAAGACAGCCAUGGGGACAUUUAUGUAAAUACGUCUCUAAUUGCCACACUGCAGCU,0.377
GGUGUGUCAGGGACUCUGUUUACUUGAAGACUGUGUGCAGUUGCCAGUUCGUCUCCCUGCUGUCUUUGAGCUAGGACUCAUAAUUUCCCUACAAAGGUCUCUGGUUAAAA,0.431
GGCAGGACCUUAUGCUCAGAAAUCUUUGUAUAGUUUUAAAUUUUUGAGGAGUAUCUCUGCUCGGAAGCAUCUGUGGUGGUGUGAUGUGUUGUUCUGUGUACUGUAUGUGA,2.59
CCUUUGCUAAUGUCAGAGACAGUUCCUAACCUAGUAACAGUUCACUUUGCGUCGUUUCUGUACUUCUUUAAAACAACUAAGCCACCGUUCGCAGCUGAGUUGUGAUACUG,0.298
UUGGCUUGGUUUGGAUGAUUCUUAAGUUUAUUAGCCUAGUGAUGGCCAAAAAGUACUUGACUUAAGGUUCACUAAUUAGUUACAAAACUGAACAGCCUCGAUUUUUAAGA,0.402

# Series 3
# Organism: Saccharomyces cerevisiae
# Observed: cell growth
# Technique: competitive growth deep sequencing
# Form: peptide
# Notes: peptide tiling library
# With: cyclin F-Cln2 fusion
# Reading: direction not given
Sequence,enrichment score
SNFFDVIKQLFSDEKN,0.651
KRCATPVIIDEILPSK,0.227
ATNSSHTDAHEILVSD,0.141
YLYLLLTQSLWCRV,0.729
QYQVVDDIVSKLVFDF,0.268
GTPKRCLDLSNLSSGE,1.1
AKRSLGFLPQPVPL,1.42
NSMKELNFSHLPSNSV,0.523
VLPGGVPSPGASLTSM,0.273
RTEALEQGGLPKKLIF,2.12
DVSERGYVILPNDYFE,0.523
RQVRRDLFAF,0.305
KVRRNLFNQELLSP,2.99
AEHPKPSACRNLFGPV,3.93

# Series 4
# Target: Fragile X messenger ribonucleoprotein 1, C-terminal low-complexity region (Fmr1, Mus musculus, UniProt P35922)
# Technique: RNA Bind-n-Seq
# Form: RNA
# Medium: in vitro
# Concentration: 200 nM
# Notes: whole 134-nt RNA, ends assumed
# With: 150 mM LiCl
# Baseline: input library
# Reading: higher = stronger binding
# All molecules: 7-deaza-guanosine replaces G
# All sequences stand within: GGGAGUUCUACAGUCCGACGAUC … UGGAAUUCUCGGGUGUCAAGG
Sequence,log2 enrichment
UCCUGUGCUACACAUCGUAUGUACCGAAUCAAAUUUUUAAAUUUUUUUAAACCCCCAAAAAAGUAUUAUGUUACGCCGUUCGGAUCUGCA,0.688
UUGAGAAGAAGCAAAAAGAGAUGGAUGAAGCUGCUACGGUGAGAGAAAACCCACUAUCGAUUCCACUCACCACUUACCUCCUUCCCUUAC,0.157
ACCAUGCAGGUGGGCAUCUUUGGGAAGUGGGGCAAGGGGGGGAUAGGGAGGGGGGUAACACUUUGGGAACAGGUGGUCCCAGGUCGAUUC,1.37
UGGCGCUGUCCUGGACUUGAUGGGGGAUGAAGCCCAGAACCUGACGAGGGGCCGGCAGCAGCUCAAGUGGUGAGUGAUCGAGUGAGCCGC,-1.66
UCCUCAAGUCCUGUGCUACACAUCGUAUGUACCGAAUCGGUGGGUGGGUGGGAAAGUAUUAUGUUACGCCGUUCGGAUCUGCACUUCCAG,1.13
UGUGCUACACAUCGUAUGUACCGAAUCGGGGAAAAAAAGGAAAAAAAGGGGAAAAAAAGGGGAAAGUAUUAUGUUACGCCGUUCGGAUCU,0.491
UGCUGUUAUCUGGAACUCCUACCUGUCCUGGAAGGCACAUCGGCUCUAAGCCUGCCUCACUCCAUCGUUUCCACCUUGCAGUGAUGCAGC,-2.23
CACAGACAACACGCAACCACACAGACACAGAGGGAAGGGGUUGGGAUGGGGACAGGGUGCACAGCAGGGCGGGGUAGGACCCCAGCCCCU,1.11
CCUCAAGUCCUGUGCUACACAUCGUAUGUACCGAAUCGGCCGGCCGGGCCGGGAAAGUAUUAUGUUACGCCGUUCGGAUCUGCACUUCCA,0.747
UGGCCCUGGUGGCAUGCGGGGAGGAAGAGGUGGCCUCAUGGAUCGUGGUGGUCCCGGUGGAAUGUUCAGAGGUGGCCGUGGUGGAGGCAG,-0.281
AAGUCCUGUGCUACACAUCGUAUGUACCGAAUCGGGAAAGGGGAAAGGGGAAAGGGAAAGUAUUAUGUUACGCCGUUCGGAUCUGCACUU,0.0669

# Series 5
# Target: Histone acetyltransferase KAT6A, winged helix 2, GST fusion (KAT6A, Homo sapiens, UniProt Q92794, residues 85-181)
# Technique: protein binding microarray
# Form: double-stranded DNA, one strand shown
# Medium: in vitro
# Concentration: not given
# Notes: 8-mer, flanks averaged, mean of 2 arrays, mostly near background
# Baseline: not given
# Reading: higher = stronger binding
# Residues (chain): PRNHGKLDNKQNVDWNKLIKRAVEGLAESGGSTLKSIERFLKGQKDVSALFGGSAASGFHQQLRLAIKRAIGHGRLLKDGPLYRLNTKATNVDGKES
Sequence,E-score
CAGCTACA,-0.133
CCGCTACA,-0.0297
CGTTCGAG,0.0053
CAGACAAG,-0.0193
AGAGCAGG,0.0762
AAGCAGTA,-0.00209
AGATCCAC,0.0191
AGAAGCCC,0.00528
AACAACCG,-0.0727
CCTGGAGA,0.13
ACAAAGAA,0.125
TACTGCCA,-0.0263
GCCGGAAA,0.217
ACCGAAAC,0.191
AGTCTCAG,-0.0512
ACAACATC,-0.0367
CAACTAAG,0.0447
CAGCGACA,0.00477
GCCGACCC,0.18
TGCACCCA,0.11
CTAAGCCA,-0.148
GTCTTGTA,-0.0292
GAACCAAA,0.0827
AACTCACC,-0.0311
CAGATGGG,-0.0902

# Series 6
# Target: Prothrombin, mature alpha-thrombin (F2, Homo sapiens, UniProt P00734)
# Technique: aptamer microarray, sandwich
# Form: DNA with 2'F-ANA
# Medium: in vitro
# Concentration: 200 nM
# Notes: whole 15-mer aptamer, many near background
# With: Cy3 exosite-II aptamer, 400 nM
# Reading: higher = stronger binding
# Sequence: GGTTGGTGTGGTTGG
Modification,mean fluorescence intensity
2'F-ANA at 3 5 8 12 14,63.5 a.u.
2'F-ANA at 2 3 6 8 9 11 13,559 a.u.
2'F-ANA at 4 6 7 9 11 12 13 14 15,85.1 a.u.
2'F-ANA at 3 6 10 11 12 15,577 a.u.
2'F-ANA at 1 5 8 10 12 13,67.2 a.u.
2'F-ANA at 1 2 4 15,138 a.u.
2'F-ANA at 2 5 6 9 10 12,52.3 a.u.
2'F-ANA at 1 4 5 7 9 10 11,46.2 a.u.
2'F-ANA at 1 2 4 7 8 9 11 12 13,169 a.u.
2'F-ANA at 1 2 4 6 8 9 14,107 a.u.
2'F-ANA at 1 2 3 5 6 8 9 14,49.2 a.u.
2'F-ANA at 2 3 4 5 7 10 12,79.9 a.u.
2'F-ANA at 2 4 6 8 9 10 11 12,155 a.u.
2'F-ANA at 2 4 5 6 8 12 13 14,46 a.u.
2'F-ANA at 2 4 5 9 10 11 13,44.4 a.u.
2'F-ANA at 1 3 6 7 10 15,84.6 a.u.
2'F-ANA at 1 7 8 9 13 14,57.9 a.u.
2'F-ANA at 4 5 6 7 8 9 10 12 13 15,48.4 a.u.
2'F-ANA at 5 6 7 11 12,132 a.u.
2'F-ANA at 4 6 8 9 10 11 12 13,72.2 a.u.
2'F-ANA at 1 2 4 6 7 9 12 13 14,57.4 a.u.

# A few entries again (series 6):
Modification,mean fluorescence intensity
2'F-ANA at 2 3 4 5 7 10 12,79.9 a.u.
2'F-ANA at 1 2 3 5 6 8 9 14,49.2 a.u.
2'F-ANA at 1 2 4 6 8 9 14,107 a.u.
2'F-ANA at 1 2 4 6 7 9 12 13 14,57.4 a.u.
2'F-ANA at 1 4 5 7 9 10 11,46.2 a.u.
